Experimental data of several laboratories.
Every numbered part comes from another study and shows a few of its results, in no order. Positions count from the first letter of the parent shown.
Chain of UniProt P43250 (whole entry, looked up): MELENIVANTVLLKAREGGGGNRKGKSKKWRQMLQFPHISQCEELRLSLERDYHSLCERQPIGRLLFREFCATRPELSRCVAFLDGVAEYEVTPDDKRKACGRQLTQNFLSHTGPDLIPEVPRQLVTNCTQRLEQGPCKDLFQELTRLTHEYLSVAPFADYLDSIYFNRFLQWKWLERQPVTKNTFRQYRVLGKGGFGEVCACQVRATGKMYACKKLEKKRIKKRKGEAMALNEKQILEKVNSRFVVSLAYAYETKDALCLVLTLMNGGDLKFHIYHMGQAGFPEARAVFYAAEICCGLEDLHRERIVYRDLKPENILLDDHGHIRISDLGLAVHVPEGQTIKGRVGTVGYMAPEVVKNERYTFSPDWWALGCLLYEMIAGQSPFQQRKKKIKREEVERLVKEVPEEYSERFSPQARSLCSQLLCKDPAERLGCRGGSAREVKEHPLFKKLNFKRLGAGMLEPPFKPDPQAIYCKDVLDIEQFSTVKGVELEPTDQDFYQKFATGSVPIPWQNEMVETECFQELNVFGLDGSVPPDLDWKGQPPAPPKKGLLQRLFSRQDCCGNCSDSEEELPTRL
Chain of UniProt Q16644 (whole entry, looked up): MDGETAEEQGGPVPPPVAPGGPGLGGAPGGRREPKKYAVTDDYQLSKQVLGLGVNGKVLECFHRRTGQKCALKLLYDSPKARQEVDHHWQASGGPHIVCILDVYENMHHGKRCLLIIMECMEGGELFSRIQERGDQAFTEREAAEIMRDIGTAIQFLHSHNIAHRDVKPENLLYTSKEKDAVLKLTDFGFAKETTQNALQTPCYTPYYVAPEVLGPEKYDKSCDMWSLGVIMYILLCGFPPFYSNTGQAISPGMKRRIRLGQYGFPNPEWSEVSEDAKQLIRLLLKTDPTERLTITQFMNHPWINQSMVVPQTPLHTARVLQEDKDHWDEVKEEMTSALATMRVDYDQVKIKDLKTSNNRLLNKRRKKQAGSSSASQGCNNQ

Series 1
Target: CCNF, cyclin fold, Cln2 fusion (human)
Technique: yeast growth competition, sequencing
Matrix: yeast
Setting: strong parent motif
Baseline: not given
Direction: higher = stronger binding
Starting sequence: viral docking peptide; YKVKRRLVFGADD
| Variant | normalised enrichment score |
| --- | --- |
| L7F | 1.01 |
| R6D | 1.28 |
| A11W | 9.35 |
| R5G | 1.77 |
| R6F | 7.7 |
| L7A | 0.422 |
| K2N | 8.51 |
| L7S | 0.792 |

Series 2
Compound: Cc1cc2c(-c3ccco3)cnc(N[C@@H]3CCN(C)C[C@H]3C(=O)NC3CCCCC3)c2[nH]c1=O
Concentration: 10 µM
| target | test | inhibition [%] |
| --- | --- | --- |
| HTR1A (Homo sapiens, UniProt P08908) | ligand displacement | 17.3 |
| SLC6A4 (Homo sapiens, UniProt P31645) | cell-free assay | 17.7 |
| DRD5 (Homo sapiens, UniProt P21918) | ligand displacement | 33.2 |

Series 3
Target: HLA class I histocompatibility antigen, C alpha chain, allele C*04:01 (Homo sapiens, UniProt P10321)
Read-out: peptide-MHC binding
Molecule type: peptide
Concentration: concentration not given
| Sequence | binding |
| --- | --- |
| FYFNWNTPI | inactive |
| YLQQNTHTL | inactive |
| DEVEFLGHY | inactive |
| NTDEIPELI | inactive |
| STMPLVMAW | inactive |
| YMWECPDFF | active |
| RMILPMSRAFR | inactive |
| YWLNTPFLV | inactive |

Other studies, line by line
| SMILES | tested on | test | conditions | scale | measurement | value |
| --- | --- | --- | --- | --- | --- | --- |
| COc1ccc2[nH]cc(C3=CCNCC3)c2c1.O=C(O)CCC(=O)O | Sarcocystis neurona | parasite growth | concentration not given, secondary screen |  | inhibition | -27.9% |
| O=C1NC(=O)c2c1c1c3ccccc3n3c1c1c2c2ccccc2n1[C@H]1CC[C@@H]3O1 | GRK6 (Homo sapiens, UniProt P43250) | enzyme activity, inhibitor | 0.5 µM | baseline: control | remaining activity | 55.6% |
| C[N+]1(CCC(C(N)=O)(c2ccccc2)c2ccccc2)CCCCC1.[Br-] | Sarcocystis neurona | parasite growth | concentration not given, secondary screen |  | inhibition | -11.9% |
| CC(C)(C)c1cc(C=C(C#N)C#N)cc(Br)c1O | MAPKAPK3 (Homo sapiens, UniProt Q16644) | enzyme activity, inhibitor | 0.5 µM |  | remaining activity | 103% |

Repeated from above (series 3):
| Sequence | binding |
| --- | --- |
| FYFNWNTPI | inactive |
| YLQQNTHTL | inactive |
| DEVEFLGHY | inactive |
| NTDEIPELI | inactive |
